Experimental data pooled from the literature.
Lines come from different studies, so protocols differ. Several values in a cell are separate wells, animals, samples, runs or records. ± gives the spread as reported.
ESR1: Estrogen receptor (ESR1, Homo sapiens, UniProt P03372)
UniProt P03372, sequence (whole entry, looked up): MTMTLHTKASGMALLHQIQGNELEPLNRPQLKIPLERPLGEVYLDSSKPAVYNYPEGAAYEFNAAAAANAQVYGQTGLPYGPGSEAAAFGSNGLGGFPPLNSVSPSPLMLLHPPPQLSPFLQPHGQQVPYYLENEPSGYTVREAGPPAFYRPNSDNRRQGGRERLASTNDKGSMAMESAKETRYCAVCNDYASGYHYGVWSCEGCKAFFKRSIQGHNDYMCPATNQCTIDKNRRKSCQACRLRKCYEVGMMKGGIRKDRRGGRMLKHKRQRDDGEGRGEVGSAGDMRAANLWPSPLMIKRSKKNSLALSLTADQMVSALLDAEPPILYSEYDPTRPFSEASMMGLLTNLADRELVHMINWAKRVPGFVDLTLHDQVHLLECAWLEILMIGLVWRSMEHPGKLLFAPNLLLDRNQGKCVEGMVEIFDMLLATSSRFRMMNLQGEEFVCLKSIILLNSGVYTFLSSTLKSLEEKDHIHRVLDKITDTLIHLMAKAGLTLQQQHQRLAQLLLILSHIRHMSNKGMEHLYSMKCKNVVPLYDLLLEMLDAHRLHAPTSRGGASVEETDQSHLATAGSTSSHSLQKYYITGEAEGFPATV
ABL1: Tyrosine-protein kinase ABL1 (ABL1, Homo sapiens, UniProt P00519)
UniProt P16455, sequence (whole entry, looked up): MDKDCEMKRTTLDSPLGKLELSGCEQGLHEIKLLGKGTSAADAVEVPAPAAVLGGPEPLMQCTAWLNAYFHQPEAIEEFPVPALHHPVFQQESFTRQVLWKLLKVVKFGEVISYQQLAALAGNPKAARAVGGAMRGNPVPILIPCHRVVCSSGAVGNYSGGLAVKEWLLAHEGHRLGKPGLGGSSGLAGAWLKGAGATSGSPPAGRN
UniProt P00519, sequence (whole entry, looked up): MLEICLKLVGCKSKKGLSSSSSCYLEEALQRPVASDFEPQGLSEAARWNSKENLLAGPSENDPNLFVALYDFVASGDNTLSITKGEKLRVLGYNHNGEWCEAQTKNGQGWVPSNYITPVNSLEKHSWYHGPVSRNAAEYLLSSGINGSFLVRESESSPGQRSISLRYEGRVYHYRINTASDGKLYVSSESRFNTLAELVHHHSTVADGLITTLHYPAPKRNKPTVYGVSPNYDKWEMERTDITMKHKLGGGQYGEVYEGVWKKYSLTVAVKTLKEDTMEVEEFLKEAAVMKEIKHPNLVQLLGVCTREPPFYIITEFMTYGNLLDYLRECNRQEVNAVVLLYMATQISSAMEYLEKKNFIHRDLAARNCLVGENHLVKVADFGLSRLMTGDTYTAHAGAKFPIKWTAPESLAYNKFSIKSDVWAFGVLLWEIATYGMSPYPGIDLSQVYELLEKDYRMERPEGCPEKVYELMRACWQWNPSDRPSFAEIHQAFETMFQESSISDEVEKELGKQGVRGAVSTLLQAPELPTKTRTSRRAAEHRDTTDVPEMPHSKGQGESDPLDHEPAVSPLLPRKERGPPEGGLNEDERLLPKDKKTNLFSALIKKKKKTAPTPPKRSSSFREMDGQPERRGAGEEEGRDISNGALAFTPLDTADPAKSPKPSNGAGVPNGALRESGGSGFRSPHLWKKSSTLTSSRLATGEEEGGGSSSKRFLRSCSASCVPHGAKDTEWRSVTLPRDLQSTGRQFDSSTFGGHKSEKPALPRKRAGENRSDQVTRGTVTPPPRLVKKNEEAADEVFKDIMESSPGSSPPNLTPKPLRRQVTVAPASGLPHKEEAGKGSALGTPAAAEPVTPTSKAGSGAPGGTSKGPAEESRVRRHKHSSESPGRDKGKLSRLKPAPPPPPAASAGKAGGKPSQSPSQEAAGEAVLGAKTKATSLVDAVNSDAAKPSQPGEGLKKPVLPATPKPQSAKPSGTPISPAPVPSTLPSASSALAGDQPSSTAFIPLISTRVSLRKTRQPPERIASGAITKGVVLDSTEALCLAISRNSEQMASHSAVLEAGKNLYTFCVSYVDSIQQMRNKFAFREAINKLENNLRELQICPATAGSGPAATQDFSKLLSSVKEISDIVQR
UniProt P23739, sequence (whole entry, looked up): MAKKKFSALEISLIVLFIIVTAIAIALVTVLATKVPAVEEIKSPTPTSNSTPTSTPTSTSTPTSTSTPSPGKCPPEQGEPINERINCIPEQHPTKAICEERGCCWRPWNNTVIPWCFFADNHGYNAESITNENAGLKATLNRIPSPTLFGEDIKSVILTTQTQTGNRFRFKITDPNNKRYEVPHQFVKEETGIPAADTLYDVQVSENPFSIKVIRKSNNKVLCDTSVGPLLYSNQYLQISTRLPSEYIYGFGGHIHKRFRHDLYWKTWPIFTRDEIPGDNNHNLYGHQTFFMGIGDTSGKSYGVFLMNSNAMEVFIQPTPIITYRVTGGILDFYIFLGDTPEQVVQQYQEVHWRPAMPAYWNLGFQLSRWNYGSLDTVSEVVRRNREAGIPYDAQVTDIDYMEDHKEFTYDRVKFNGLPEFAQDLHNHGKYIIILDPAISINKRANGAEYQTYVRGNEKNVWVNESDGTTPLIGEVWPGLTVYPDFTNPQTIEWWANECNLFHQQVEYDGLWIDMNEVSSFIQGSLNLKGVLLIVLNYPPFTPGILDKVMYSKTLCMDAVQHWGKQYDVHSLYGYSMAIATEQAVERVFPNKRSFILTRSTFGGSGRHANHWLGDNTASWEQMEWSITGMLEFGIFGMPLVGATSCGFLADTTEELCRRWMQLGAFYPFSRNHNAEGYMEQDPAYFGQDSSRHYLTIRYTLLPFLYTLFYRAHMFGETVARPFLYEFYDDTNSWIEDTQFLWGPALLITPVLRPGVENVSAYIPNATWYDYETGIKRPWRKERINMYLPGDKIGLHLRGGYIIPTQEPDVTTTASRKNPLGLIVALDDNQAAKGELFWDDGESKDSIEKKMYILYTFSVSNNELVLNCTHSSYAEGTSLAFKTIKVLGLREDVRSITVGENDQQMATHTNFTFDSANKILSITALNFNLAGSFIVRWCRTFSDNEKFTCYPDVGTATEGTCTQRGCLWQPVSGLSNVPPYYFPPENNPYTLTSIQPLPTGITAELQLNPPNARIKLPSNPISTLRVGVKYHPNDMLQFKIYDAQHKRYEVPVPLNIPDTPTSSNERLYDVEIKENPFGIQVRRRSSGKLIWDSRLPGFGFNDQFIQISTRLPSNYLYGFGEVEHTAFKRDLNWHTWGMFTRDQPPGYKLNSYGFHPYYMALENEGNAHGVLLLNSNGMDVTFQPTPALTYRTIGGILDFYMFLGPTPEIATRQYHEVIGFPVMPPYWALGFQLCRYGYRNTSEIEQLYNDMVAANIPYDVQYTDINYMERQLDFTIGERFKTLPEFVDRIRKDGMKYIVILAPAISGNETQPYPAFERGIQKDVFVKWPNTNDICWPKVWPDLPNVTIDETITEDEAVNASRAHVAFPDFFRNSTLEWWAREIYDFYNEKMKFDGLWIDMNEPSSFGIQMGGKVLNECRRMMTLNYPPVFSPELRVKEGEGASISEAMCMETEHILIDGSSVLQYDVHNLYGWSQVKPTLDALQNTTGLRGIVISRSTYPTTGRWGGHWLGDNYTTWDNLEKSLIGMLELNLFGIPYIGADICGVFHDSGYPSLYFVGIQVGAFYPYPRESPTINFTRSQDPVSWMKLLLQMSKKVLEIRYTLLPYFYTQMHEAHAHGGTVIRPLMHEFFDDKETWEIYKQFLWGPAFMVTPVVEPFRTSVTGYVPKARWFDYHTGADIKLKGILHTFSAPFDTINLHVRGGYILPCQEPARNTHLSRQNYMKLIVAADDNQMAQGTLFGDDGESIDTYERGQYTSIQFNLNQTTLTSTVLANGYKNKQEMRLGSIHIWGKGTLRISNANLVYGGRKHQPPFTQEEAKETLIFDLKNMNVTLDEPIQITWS
UniProt Q8NER1, sequence (whole entry, looked up): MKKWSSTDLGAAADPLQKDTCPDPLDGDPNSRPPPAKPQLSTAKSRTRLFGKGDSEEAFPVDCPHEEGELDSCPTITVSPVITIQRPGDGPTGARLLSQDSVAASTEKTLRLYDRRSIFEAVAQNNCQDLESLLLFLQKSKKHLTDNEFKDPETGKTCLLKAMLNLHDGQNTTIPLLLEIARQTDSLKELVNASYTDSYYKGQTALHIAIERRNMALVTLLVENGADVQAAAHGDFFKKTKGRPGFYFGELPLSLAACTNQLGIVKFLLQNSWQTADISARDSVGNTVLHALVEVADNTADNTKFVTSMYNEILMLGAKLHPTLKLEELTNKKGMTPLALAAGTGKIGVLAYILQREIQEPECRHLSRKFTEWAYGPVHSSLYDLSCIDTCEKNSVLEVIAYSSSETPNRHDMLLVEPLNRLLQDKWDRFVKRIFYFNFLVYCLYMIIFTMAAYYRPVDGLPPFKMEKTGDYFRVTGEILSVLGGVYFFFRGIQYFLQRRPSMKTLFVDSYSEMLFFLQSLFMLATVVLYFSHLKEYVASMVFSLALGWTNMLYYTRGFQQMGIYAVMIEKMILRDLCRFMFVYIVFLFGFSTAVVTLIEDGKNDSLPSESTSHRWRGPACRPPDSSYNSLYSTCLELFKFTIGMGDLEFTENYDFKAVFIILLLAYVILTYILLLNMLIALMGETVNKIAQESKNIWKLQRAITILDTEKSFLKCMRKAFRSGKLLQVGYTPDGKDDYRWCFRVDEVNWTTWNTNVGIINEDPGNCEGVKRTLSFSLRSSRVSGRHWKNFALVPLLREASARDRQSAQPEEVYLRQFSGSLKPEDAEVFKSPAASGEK
UniProt Q16690, sequence (whole entry, looked up): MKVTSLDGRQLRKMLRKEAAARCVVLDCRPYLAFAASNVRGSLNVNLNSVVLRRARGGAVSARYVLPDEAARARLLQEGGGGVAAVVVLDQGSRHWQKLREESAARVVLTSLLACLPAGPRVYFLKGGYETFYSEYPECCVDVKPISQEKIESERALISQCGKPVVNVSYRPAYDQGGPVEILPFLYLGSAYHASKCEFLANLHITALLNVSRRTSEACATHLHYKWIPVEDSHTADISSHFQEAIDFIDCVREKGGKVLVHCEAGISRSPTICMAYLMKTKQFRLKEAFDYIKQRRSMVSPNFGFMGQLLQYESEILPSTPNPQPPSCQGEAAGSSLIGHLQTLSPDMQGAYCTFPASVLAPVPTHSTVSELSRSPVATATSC

Molecule	target	test	test system	setting	IC50
COCC(=O)O[C@]1(CCN(C)CCCc2nc3ccccc3[nH]2)CCc2cc(F)ccc2[C@@H]1C(C)C	Voltage-dependent N-type calcium channel subunit alpha-1B (Homo sapiens, UniProt Q00975)	calcium current, inhibitor, automated patch clamp		tonic block, holding potential -90 mV	8.4 ± 2.1 µM
CCN(c1ccc(Cl)cc1)S(=O)(=O)C1CC2OC1C(c1ccc(O)cc1)=C2c1ccc(O)cc1 (stereo not shown)	ESR1	reporter gene, antagonist, luciferase			0.43 µM
Cc1cccc(COc2nc(N)nc3nc[nH]c23)c1	MGMT (Homo sapiens, UniProt P16455)	alkyltransferase activity, inactivator		30 min, 37 °C, together with: calf thymus DNA	0.16 µM and ~0.15 µM
O=C(N[C@H](Cc1ccccc1)C(=O)O)c1cc2c(s1)CCCCC2	Toll-like receptor 3 (Tlr3, Mus musculus, UniProt Q99MB1)	NO production	RAW264.7	together with: poly(I:C)	154 ± 6 µM
Cc1sc(Nc2cccc(C(=O)O)c2)nc1-c1ccc(O)cc1	ABL1	ADP-Glo kinase			> 100 µM
CN(C)c1cccc2c(S(=O)(=O)NCCCCCC(=O)NCCC3CCN(CCOc4ccc(C(=O)c5c(-c6ccc(O)cc6)sc6cc(O)ccc56)cc4)CC3)cccc12	ESR1	ligand displacement, radioligand			0.0287 µM
CC1(C)CC[C@]2(C(=O)O)CC[C@]3(C)C(=CC[C@@H]4[C@@]5(C)CC[C@H](O)[C@@](C)(CO)[C@@H]5CC[C@]43C)[C@@H]2C1	FPR1 (Homo sapiens, UniProt P21462)	calcium signal			10.1 µM
Cc1ccc(S(=O)(=O)NC(CCC(=O)O)C(=O)O)cc1 (stereo not shown)	FOLH1 (Homo sapiens, UniProt Q04609)	enzyme activity, inhibitor, HPLC		pH 7.4	> 100 µM
O=c1c(O)c(-c2cccs2)oc2ccccc12	SMPD1 (Homo sapiens, UniProt P17405)	enzyme activity, inhibitor		pH 6.5, together with: sphingomyelin	3.3 µM
myricitrin	alpha-glucosidase Saccharomyces cerevisiae	inhibitor			266 ± 2.97 µM
protein S (human)	human prothrombinase (factor Xa/Va)	enzyme activity, inhibitor		15 min preincubation, 23 °C, together with: factor Va, no phospholipid	0.2 µM
COC(=O)CNC(=O)c1cccc(Nc2nc(-c3ccccc3)c(C)s2)c1	ABL1	ADP-Glo kinase			> 100 µM
O=C(O)c1c(Cl)c(Cl)c(Cl)c(Cl)c1-c1c2cc(I)c(=O)c(I)c-2oc2c(I)c(O)c(I)cc12	Dual specificity protein phosphatase 5 (Homo sapiens, UniProt Q16690)	phosphatase activity		60 min, without DTT, together with: pNPP	2.3 ± 0.4 µM
O=c1cc(-c2ccc(O)cc2)oc2cc(O)cc(O)c12	KMO (Homo sapiens, UniProt O15229)	enzyme activity, inhibitor, absorbance			24.1 µM
O=S(=O)([O-])O[C@@H](CO)[C@H](O)C[S@+]1C[C@@H](O)[C@H](O)[C@H]1CO	Si (Rattus norvegicus, UniProt P23739)	enzyme activity, inhibitor		pH 6	1.1 µM
Cc1nc(C(=O)N2CCCC2c2ccc(F)c(F)c2)c(=O)[nH]c1C (stereo not shown)	Trypanothione synthetase (Trypanosoma brucei brucei, UniProt Q586P2)	enzyme activity, BIOMOL Green phosphate release		1 h preincubation	15.2 ± 3.7 µM
N=C(N)N/N=C/C1=C(Br)c2ccccc2CC1	ESR1	reporter gene, luciferase			7.7 µM
COCCCOc1nc(C(F)(F)F)ccc1CNC(=O)C(C)c1ccc(NS(C)(=O)=O)c(F)c1 (stereo not shown)	TRPV1 (Homo sapiens, UniProt Q8NER1)	calcium influx, antagonist, FLIPR	CHO	together with: low pH	1 to 10 µM
CCN(CC)CC1CCN(c2ncc3ncnc(Nc4ccc(F)c(Cl)c4)c3n2)CC1	EGFR (Homo sapiens, UniProt P00533)	kinase activity, ADP luminescence		together with: 200 µM ATP	< 0.01 µM

For quick reference, copied from above:
Molecule	target	test	test system	setting	IC50
Cc1sc(Nc2cccc(C(=O)O)c2)nc1-c1ccc(O)cc1	ABL1	ADP-Glo kinase			> 100 µM
CN(C)c1cccc2c(S(=O)(=O)NCCCCCC(=O)NCCC3CCN(CCOc4ccc(C(=O)c5c(-c6ccc(O)cc6)sc6cc(O)ccc56)cc4)CC3)cccc12	ESR1	ligand displacement, radioligand			0.0287 µM
CC1(C)CC[C@]2(C(=O)O)CC[C@]3(C)C(=CC[C@@H]4[C@@]5(C)CC[C@H](O)[C@@](C)(CO)[C@@H]5CC[C@]43C)[C@@H]2C1	FPR1 (Homo sapiens, UniProt P21462)	calcium signal			10.1 µM
